{"data": "Measurements of several laboratories", "note": "Numbered parts are unrelated; each lists some results of a single study. Positions count from the first letter of the parent shown."}
{"data": "Block 1", "target": "CCNE1, cyclin fold, Cln2 fusion (human)", "method": "yeast growth competition, sequencing", "sample": "yeast", "notes": "weak parent motif", "reference": "not given", "direction": "higher = stronger binding", "parent": "WEE1 docking peptide (human); HKTFRKLRLFDTP"}
{"Change": "HKTFRKLRLFDTA [P13A]", "normalised enrichment score": 0.42}
{"Change": "HKTFRKLRLFDTI [P13I]", "normalised enrichment score": 0.102}
{"Change": "HKHFRKLRLFDTP [T3H]", "normalised enrichment score": 1.19}
{"Change": "HKTFRKLRLFDTN [P13N]", "normalised enrichment score": 0.957}
{"Change": "HKTFRTLRLFDTP [K6T]", "normalised enrichment score": 0.343}
{"Change": "HKTFRKLRLFDTE [P13E]", "normalised enrichment score": -0.579}
{"Change": "HKTMRKLRLFDTP [F4M]", "normalised enrichment score": 0.489}
{"Change": "HKTFRKLRDFDTP [L9D]", "normalised enrichment score": 0.655}
{"Change": "HKTFYKLRLFDTP [R5Y]", "normalised enrichment score": 0.0609}
{"Change": "HKTFCKLRLFDTP [R5C]", "normalised enrichment score": -0.0068}
{"Change": "QKTFRKLRLFDTP [H1Q]", "normalised enrichment score": 1.03}
{"Change": "HKTFMKLRLFDTP [R5M]", "normalised enrichment score": 0.737}
{"Change": "HKTFRKDRLFDTP [L7D]", "normalised enrichment score": -0.519}
{"Change": "HKTFLKLRLFDTP [R5L]", "normalised enrichment score": 0.373}
{"Change": "HKTFRKLRLFSTP [D11S]", "normalised enrichment score": 0.532}
{"Change": "HKTFRKLRLFDTT [P13T]", "normalised enrichment score": 1.21}
{"Change": "HKTFRKLRFFDTP [L9F]", "normalised enrichment score": 0.603}
{"Change": "HKMFRKLRLFDTP [T3M]", "normalised enrichment score": 0.404}
{"Change": "HITFRKLRLFDTP [K2I]", "normalised enrichment score": 0.458}
{"Change": "HKTFRWLRLFDTP [K6W]", "normalised enrichment score": 1.56}
{"Change": "HKTFRKLRSFDTP [L9S]", "normalised enrichment score": 0.568}
{"Change": "HKTFRKLRLFDTY [P13Y]", "normalised enrichment score": 0.553}
{"Change": "HKTFAKLRLFDTP [R5A]", "normalised enrichment score": -1.1}
{"Change": "HKTFRALRLFDTP [K6A]", "normalised enrichment score": 0.54}
{"Change": "HKTNRKLRLFDTP [F4N]", "normalised enrichment score": 0.452}
{"data": "Block 2", "target": "FOS, bZIP domain (human)", "method": "DHFR protein complementation", "sample": "yeast", "notes": "single substitutions, most at no-binding floor", "reference": "wild-type JUN-FOS pair", "direction": "higher = stronger binding", "parent": "JUN, bZIP domain (human); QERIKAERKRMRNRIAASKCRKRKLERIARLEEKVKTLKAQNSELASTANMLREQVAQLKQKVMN; partner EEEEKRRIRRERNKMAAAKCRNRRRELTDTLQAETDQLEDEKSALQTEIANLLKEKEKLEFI"}
{"Change": "L45K", "binding fitness": "-1.37 natural log"}
{"Change": "N42S", "binding fitness": "-0.977 natural log"}
{"Change": "A46P", "binding fitness": "-1.22 natural log"}
{"Change": "A57T", "binding fitness": "-0.0966 natural log"}
{"Change": "L59A", "binding fitness": "-0.831 natural log"}
{"Change": "A57H", "binding fitness": "-0.113 natural log"}
{"Change": "A40D", "binding fitness": "-0.114 natural log"}
{"Change": "L31A", "binding fitness": "-0.153 natural log"}
{"Change": "N42A", "binding fitness": "-0.603 natural log"}
{"Change": "S47N", "binding fitness": "0.0212 natural log"}
{"Change": "M51H", "binding fitness": "-0.0723 natural log"}
{"Change": "Q41N", "binding fitness": "-0.318 natural log"}
{"Change": "I28T", "binding fitness": "-0.169 natural log"}
{"Change": "L52W", "binding fitness": "-1.22 natural log"}
{"Change": "L59W", "binding fitness": "-1.22 natural log"}
{"Change": "Q55G", "binding fitness": "-0.932 natural log"}
{"Change": "E33K", "binding fitness": "-0.244 natural log"}
{"Change": "A29M", "binding fitness": "-0.372 natural log"}
{"Change": "E44V", "binding fitness": "-0.0788 natural log"}
{"Change": "Q41A", "binding fitness": "-0.199 natural log"}
{"Change": "Q41E", "binding fitness": "0.0605 natural log"}
{"data": "Block 3", "target": "Ras GTPase-activating protein-binding protein 1, RRM domain (G3BP1, Homo sapiens, UniProt Q13283)", "method": "RNA Bind-n-Seq", "form": "RNA", "sample": "in vitro", "tested at": "1 µM", "notes": "whole 134-nt RNA, ends assumed", "with": "150 mM KCl", "reference": "input library", "direction": "higher = stronger binding", "UniProt Q13283, sequence (whole entry, looked up)": "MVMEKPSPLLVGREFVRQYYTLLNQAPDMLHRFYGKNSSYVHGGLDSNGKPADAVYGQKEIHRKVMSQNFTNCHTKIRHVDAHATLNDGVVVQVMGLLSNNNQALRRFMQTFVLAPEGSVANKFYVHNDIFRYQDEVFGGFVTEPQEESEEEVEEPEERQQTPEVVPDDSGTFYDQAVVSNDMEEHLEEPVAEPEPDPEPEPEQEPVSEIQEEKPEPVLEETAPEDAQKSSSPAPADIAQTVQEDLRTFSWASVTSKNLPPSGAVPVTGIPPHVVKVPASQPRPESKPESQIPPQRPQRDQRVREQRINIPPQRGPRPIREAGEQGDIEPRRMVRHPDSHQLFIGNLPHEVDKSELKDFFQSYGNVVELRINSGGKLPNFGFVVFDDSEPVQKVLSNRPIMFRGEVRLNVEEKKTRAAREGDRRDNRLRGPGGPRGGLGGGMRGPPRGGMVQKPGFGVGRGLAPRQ"}
{"Oligonucleotide": "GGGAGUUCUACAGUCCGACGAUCUGGCCCUGGAGGCAUGCGGGGAGGAAGAGGUGGCCUCAUGGAUCGUGGUGGUCCCGGUGGAAUGUUCAGAGGUGGCCGUGGUGGAGACAGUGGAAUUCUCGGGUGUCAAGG", "log2 enrichment": 0.769}
{"Oligonucleotide": "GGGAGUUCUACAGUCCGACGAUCUUGCGGCAGCCGCCCCCUUCUGCGCGGUCACGCCGAGCCAGCGCCUGGGCCUGGAACCGGGCCGUAGCCCCCCCAGUUUCGCCCACCACCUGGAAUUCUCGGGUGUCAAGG", "log2 enrichment": -0.557}
{"Oligonucleotide": "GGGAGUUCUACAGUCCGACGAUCGCAGGAAGUAAAAACAAAUGGAAAUGCUUCGGAAAGUGGCAGGGGUGGGGGUUGCUAAGGAAAGGGUGGGAUGGGAGUGGGUAAAGAGUUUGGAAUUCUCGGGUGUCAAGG", "log2 enrichment": 1.41}
{"Oligonucleotide": "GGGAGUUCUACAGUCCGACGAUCAAGUCCUGUGCUACACAUCGUAUGUACCGAAUCGGGUUUGGGUUUUUUUGGGUGGGAAAGUAUUAUGUUACGCCGUUCGGAUCUGCACUUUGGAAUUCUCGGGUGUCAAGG", "log2 enrichment": 0.513}
{"Oligonucleotide": "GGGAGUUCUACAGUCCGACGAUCACCAUGCAGGUGGGCAUCUUUGGGAAGUGGGGCAAGGGGGGGAUAGGGAGGGGGGUAACACUUUGGGAACAGGUGGUCCCGGGUCGUUUCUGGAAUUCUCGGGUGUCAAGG", "log2 enrichment": 0.668}
{"Oligonucleotide": "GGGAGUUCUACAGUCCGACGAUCCACAGACAACACGCACCCACACAGACACAGAGGGAAGGGGUUGGGUUGGGGACAGGGUGCACAGCAGGGCGGGGUAGGACCCCAGCCCCUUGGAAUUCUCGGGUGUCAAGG", "log2 enrichment": -0.00646}
{"Oligonucleotide": "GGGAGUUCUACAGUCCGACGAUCAAGUCCUGUGCUACACAUCGUAUGUACCGAAUCGGGAAAGGGGAAAGGGGAAAGGGGAAAGUAUUAUGUUACGCCGUUCGGAUCUGCACUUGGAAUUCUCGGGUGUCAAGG", "log2 enrichment": 0.544}
{"Oligonucleotide": "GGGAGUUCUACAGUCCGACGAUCUGCUGUUAUCUGGAACUCCUACCUGUCCUGGAAGGCACAUCGGCUCUAAGCCUGCCUCACUCCAUCGUUUCCACCUUGCAGUGAUGCAGCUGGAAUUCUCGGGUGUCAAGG", "log2 enrichment": -0.284}
{"Oligonucleotide": "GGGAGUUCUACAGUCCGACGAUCUGAAAAUGCUUUCAUGUUAAUUGUGUACACACAUUUCAUCUGUAUCCCUGUUUCUUUUCUCCCUACAGAAACAUAUGAGGAUUUUGAUACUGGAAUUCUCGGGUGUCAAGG", "log2 enrichment": -0.126}
{"Oligonucleotide": "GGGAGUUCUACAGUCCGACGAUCCCUGUGCUACACAUCGUAUGUACCGAAUCGGGGAAAAAAGGAAAAAAGGGAAAAAAGGGGAAAGUAUUAUGUUACGCCGUUCGGAUCUGCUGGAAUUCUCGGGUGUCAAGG", "log2 enrichment": -0.0216}
{"data": "Block 4", "target": "ABI1, truncated, D143A, DHFR fusion (Arabidopsis thaliana)", "method": "DHFR PCA, deep sequencing", "sample": "yeast", "notes": "methotrexate growth selection, single substitutions", "with": "(+)-ABA 0 µM", "reference": "wild-type fitted maximum", "direction": "higher = stronger binding", "parent": "PYL1, truncated, DHFR fusion (Arabidopsis thaliana); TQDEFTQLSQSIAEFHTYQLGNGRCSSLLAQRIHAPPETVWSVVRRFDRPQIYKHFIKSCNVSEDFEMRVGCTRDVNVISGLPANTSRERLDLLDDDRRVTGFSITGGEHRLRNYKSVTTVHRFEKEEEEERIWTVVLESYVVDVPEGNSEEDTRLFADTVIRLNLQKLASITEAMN; partner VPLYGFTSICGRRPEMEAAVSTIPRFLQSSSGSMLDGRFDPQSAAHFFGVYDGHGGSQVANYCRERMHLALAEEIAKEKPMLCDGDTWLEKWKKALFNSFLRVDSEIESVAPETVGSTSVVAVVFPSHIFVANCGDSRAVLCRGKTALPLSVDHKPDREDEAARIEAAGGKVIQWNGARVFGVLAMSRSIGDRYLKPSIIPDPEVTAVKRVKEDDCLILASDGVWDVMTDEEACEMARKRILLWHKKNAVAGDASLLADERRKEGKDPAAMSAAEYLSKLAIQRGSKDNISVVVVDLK"}
{"Change": "E38I", "relative binding score [%]": 0.79}
{"Change": "T135M", "relative binding score [%]": -9.26}
{"Change": "C60D", "relative binding score [%]": -11.9}
{"Change": "T1C", "relative binding score [%]": 24}
{"Change": "V78N", "relative binding score [%]": 38.9}
{"Change": "R98P", "relative binding score [%]": -3.88}
{"Change": "G148D", "relative binding score [%]": -0.495}
{"Change": "T17D", "relative binding score [%]": -0.465}
{"Change": "M176T", "relative binding score [%]": 9.92}
{"Change": "E38H", "relative binding score [%]": 1.87}
{"Change": "E89H", "relative binding score [%]": 4.62}
{"Change": "R155Y", "relative binding score [%]": -1.97}
{"Change": "L166E", "relative binding score [%]": 8.73}
{"Change": "W41S", "relative binding score [%]": 1.23}
{"Change": "F124V", "relative binding score [%]": 29.1}
{"Change": "L164A", "relative binding score [%]": 13.9}
{"data": "Block 5", "target": "Sal-like protein 4, full length isoform B (SALL4, Homo sapiens, UniProt Q9UJQ4-2, residues 1-616)", "method": "universal PBM", "form": "double-stranded DNA, one strand shown", "sample": "in vitro", "tested at": "not given", "notes": "8-mer, flanks averaged, mean of replicates", "direction": "higher = stronger binding"}
{"Oligonucleotide": "AAAAAGAC", "E-score": 0.226}
{"Oligonucleotide": "GAACTCTC", "E-score": -0.161}
{"Oligonucleotide": "CGCAGCGC", "E-score": -0.203}
{"Oligonucleotide": "ATGCATTG", "E-score": 0.108}
{"Oligonucleotide": "ACCAAAAG", "E-score": 0.201}
{"Oligonucleotide": "AGGAGCAC", "E-score": -0.166}
{"Oligonucleotide": "GGGACCGA", "E-score": -0.309}
{"Oligonucleotide": "CAAGCTTA", "E-score": -0.139}
{"Oligonucleotide": "AGATAGAC", "E-score": 0.0716}
{"Oligonucleotide": "CCACATAC", "E-score": 0.0738}
{"Oligonucleotide": "CTCCAGAG", "E-score": -0.184}
{"Oligonucleotide": "CCGAGTAG", "E-score": -0.114}
{"Oligonucleotide": "GGTATAAC", "E-score": 0.193}
{"Oligonucleotide": "CCCAGGAA", "E-score": -0.0682}
{"Oligonucleotide": "CTTGAAAC", "E-score": 0.0566}
{"Oligonucleotide": "AGGACCCT", "E-score": -0.202}
{"Oligonucleotide": "GAATTAGA", "E-score": 0.191}
{"Oligonucleotide": "AAGCGACT", "E-score": 0.0498}
{"Oligonucleotide": "AGACAACG", "E-score": -0.0483}
{"Oligonucleotide": "ACTGACCT", "E-score": -0.0066}
{"Oligonucleotide": "CACTATAG", "E-score": 0.149}
{"Oligonucleotide": "TCGGACGA", "E-score": -0.143}
{"Oligonucleotide": "GGCAATAC", "E-score": 0.00133}
{"Oligonucleotide": "CACTTTGA", "E-score": -0.0905}
{"Oligonucleotide": "ACTTTTCC", "E-score": 0.158}
{"data": "Other studies, line by line"}
{"Substance": "PhoQ, residues 284 288 289 292 302 303 HSSMNL", "target": "PhoP, residues 12 14 15 18 19 LHATL (Escherichia coli, UniProt P23836)", "assay": "Sort-seq, item: YFP reporter", "test system": "E. coli", "setting": "PhoQ-PhoP variant library, with: 10 µM Mg2+", "scale": "reference: high Mg2+ state, higher = stronger signaling", "measurement": "fold induction", "value": 28}
